Results collected from several papers.
Parts stem from different laboratories: compare values within a part only. “And” joins repeats or separate records; there may be more than shown.
UniProt P57059, sequence (whole entry, looked up): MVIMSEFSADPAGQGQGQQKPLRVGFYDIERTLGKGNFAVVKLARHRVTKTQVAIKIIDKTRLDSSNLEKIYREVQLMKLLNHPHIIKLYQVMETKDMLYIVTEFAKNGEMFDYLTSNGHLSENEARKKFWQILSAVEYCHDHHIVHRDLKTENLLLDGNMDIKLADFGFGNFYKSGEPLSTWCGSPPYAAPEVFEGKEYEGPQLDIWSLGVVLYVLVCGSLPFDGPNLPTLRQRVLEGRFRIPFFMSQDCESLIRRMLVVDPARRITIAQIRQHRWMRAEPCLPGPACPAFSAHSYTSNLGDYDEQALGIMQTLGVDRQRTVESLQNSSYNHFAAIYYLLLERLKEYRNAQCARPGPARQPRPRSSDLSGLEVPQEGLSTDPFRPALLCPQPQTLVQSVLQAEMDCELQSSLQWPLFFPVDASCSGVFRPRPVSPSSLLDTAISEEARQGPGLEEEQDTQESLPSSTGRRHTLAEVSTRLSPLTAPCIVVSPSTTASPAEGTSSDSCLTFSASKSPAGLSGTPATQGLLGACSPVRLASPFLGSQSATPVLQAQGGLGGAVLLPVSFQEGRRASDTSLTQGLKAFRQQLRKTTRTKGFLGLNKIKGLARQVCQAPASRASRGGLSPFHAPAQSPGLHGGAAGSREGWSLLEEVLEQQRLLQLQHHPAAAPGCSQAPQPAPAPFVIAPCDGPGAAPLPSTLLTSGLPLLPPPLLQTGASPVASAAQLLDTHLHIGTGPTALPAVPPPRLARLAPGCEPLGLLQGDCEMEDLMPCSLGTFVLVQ
UniProt P51817, sequence (whole entry, looked up): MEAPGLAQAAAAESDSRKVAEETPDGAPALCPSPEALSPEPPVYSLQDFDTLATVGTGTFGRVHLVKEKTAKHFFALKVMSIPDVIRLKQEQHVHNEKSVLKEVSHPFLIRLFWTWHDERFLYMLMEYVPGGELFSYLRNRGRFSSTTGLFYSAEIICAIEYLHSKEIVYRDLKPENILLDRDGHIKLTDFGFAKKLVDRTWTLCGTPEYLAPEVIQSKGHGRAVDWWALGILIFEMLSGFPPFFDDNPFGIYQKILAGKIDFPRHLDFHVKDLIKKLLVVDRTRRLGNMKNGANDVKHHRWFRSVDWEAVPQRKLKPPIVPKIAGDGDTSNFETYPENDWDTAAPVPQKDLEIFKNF
UniProt Q13705, sequence (whole entry, looked up): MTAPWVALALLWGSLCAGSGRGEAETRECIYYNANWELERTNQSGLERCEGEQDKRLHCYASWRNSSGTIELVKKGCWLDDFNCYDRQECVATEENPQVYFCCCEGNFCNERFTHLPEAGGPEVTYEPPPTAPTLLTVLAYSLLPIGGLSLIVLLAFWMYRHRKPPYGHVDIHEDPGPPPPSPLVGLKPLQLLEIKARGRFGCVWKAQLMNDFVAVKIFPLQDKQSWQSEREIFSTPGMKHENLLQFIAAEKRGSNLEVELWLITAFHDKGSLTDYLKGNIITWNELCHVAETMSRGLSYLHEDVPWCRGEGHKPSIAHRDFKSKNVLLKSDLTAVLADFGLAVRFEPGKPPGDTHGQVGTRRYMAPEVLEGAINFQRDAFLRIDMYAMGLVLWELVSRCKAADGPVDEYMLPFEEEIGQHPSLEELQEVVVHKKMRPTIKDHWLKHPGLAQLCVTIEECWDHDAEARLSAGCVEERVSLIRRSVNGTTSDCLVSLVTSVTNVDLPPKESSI
UniProt Q8TDX7, sequence (whole entry, looked up): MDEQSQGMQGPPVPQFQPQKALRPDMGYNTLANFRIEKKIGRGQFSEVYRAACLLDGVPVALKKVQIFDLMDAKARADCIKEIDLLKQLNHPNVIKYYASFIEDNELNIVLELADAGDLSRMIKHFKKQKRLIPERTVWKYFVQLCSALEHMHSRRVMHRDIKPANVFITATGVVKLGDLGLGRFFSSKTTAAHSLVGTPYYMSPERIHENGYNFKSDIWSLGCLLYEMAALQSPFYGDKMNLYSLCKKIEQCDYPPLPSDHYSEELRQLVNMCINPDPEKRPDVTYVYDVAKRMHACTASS

Block 1 — observed: enzyme activity; mode: inhibitor; tested at: 77 µM; relative to: untreated
Target: DNA polymerase theta, ATPase domain (POLQ, Homo sapiens, UniProt O75417)
UniProt O75417, sequence (whole entry, unmodified, looked up): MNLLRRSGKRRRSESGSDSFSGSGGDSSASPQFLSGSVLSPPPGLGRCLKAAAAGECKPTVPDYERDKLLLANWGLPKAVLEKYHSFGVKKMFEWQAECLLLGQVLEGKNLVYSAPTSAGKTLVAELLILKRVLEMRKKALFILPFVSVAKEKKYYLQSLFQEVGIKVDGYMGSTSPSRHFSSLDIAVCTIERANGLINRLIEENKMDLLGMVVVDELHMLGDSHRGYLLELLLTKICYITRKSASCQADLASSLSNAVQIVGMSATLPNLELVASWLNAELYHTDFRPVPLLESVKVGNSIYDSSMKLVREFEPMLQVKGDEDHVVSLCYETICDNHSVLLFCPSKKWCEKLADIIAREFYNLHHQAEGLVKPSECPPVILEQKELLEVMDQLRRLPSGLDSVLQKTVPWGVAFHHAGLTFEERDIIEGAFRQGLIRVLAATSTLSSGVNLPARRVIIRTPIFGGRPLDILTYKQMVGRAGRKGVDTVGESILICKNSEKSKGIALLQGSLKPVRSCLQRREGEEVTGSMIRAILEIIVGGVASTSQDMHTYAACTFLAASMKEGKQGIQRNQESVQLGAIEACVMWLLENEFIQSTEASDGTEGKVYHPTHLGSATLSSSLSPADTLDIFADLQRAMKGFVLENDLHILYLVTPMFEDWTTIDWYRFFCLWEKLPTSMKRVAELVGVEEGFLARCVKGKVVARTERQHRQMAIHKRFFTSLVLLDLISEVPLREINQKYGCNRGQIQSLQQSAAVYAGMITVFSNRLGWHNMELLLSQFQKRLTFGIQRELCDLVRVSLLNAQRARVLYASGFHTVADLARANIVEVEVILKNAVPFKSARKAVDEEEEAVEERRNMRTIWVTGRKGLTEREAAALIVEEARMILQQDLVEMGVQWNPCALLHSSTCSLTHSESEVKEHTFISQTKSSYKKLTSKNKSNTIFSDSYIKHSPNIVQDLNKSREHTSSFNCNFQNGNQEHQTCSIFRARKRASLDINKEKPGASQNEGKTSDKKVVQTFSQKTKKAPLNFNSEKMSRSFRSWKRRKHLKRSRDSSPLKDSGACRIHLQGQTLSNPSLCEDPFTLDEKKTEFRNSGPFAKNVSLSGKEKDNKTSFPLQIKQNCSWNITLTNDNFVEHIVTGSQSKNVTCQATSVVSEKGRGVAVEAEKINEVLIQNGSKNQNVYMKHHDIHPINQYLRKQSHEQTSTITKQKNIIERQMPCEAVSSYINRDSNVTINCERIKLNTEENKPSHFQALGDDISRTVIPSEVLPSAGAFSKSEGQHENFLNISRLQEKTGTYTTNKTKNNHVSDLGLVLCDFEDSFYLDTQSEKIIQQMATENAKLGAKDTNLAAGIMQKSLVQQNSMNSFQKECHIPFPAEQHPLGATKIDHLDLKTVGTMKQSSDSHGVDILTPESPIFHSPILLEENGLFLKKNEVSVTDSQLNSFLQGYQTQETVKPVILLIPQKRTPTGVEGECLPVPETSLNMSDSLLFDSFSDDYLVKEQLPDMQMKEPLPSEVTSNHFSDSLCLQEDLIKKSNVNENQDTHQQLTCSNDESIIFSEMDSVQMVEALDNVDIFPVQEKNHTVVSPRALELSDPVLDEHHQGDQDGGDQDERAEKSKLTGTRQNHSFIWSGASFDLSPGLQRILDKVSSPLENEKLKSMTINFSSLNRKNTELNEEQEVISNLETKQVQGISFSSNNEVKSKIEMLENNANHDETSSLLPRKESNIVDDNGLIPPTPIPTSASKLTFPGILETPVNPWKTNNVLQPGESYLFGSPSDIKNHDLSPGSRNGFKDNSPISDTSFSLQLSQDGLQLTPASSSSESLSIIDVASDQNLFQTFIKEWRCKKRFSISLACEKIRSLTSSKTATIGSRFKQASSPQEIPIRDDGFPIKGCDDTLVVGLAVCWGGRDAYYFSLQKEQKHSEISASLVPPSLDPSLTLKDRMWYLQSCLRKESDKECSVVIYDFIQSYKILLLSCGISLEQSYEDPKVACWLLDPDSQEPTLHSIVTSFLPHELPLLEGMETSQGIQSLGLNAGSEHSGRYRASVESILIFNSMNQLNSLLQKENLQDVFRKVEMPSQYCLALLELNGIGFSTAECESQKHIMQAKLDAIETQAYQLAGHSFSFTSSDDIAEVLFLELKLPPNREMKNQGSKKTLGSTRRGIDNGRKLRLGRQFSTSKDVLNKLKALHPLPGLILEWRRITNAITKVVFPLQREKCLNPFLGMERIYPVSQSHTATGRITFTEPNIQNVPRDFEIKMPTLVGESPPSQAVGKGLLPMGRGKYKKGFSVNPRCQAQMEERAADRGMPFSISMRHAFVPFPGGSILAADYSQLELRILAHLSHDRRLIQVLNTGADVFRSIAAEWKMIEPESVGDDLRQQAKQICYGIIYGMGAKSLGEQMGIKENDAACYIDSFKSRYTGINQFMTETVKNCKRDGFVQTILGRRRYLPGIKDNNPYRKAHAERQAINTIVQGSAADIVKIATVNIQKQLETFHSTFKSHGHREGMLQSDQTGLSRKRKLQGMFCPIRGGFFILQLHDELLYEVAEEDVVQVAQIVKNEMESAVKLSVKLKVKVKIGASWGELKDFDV
| Structure (SMILES) | remaining activity |
| --- | --- |
| Cc1ccc(-c2c(-c3nn(C)c4ncnc(N5CC[C@H](N6CCCCC6)C5)c34)cnn2C)cc1 | 102% |
| CN1CCCN(C(=O)c2cccc(-c3ccc(/C=C4/C(=O)Nc5ccc(Cl)cc54)o3)c2)CC1 | 72.7% |
| NCC(O)(CS(=O)(=O)O)c1ccc(Cl)cc1 (centres unmarked) | 97.2% |
| CNc1cc(NS(=O)(=O)c2ccc(N)cc2)nc(NC)n1 | 97.8% |
| NC(CO)(CO)CO | 96.2% |
| CC(=O)NNC(=O)N1Cc2ccccc2Oc2ccc(Cl)cc21 | 101% |
| O=[N+]([O-])c1ccc2c(c1)S(=O)(=O)C=C2 | 109% and 102% |

Block 2 — cell line: A-375; tested at: 100 µM; time: 60 h
| SMILES | viability [%] |
| --- | --- |
| C=C(c1ccc(C(=O)O)cc1)c1cc2c(cc1C)C(C)(C)CCC2(C)C | 5.66 |
| CC(CCc1ccc(O)cc1)NCC(O)c1ccc(O)cc1 (centres unmarked) | 110 |
| O=C(O)CN(CCN(CC(=O)O)CC(=O)O)CC(=O)O | 101 |
| O=C(O)Cc1ccc(-c2ccccc2)cc1 | 98.8 |

Block 3 — observed: enzyme activity; mode: inhibitor; tested at: 0.5 µM; relative to: control
Target: Calcium/calmodulin-dependent protein kinase type II subunit gamma (CAMK2G, Homo sapiens, UniProt Q13555)
UniProt Q13555, sequence (whole entry, looked up): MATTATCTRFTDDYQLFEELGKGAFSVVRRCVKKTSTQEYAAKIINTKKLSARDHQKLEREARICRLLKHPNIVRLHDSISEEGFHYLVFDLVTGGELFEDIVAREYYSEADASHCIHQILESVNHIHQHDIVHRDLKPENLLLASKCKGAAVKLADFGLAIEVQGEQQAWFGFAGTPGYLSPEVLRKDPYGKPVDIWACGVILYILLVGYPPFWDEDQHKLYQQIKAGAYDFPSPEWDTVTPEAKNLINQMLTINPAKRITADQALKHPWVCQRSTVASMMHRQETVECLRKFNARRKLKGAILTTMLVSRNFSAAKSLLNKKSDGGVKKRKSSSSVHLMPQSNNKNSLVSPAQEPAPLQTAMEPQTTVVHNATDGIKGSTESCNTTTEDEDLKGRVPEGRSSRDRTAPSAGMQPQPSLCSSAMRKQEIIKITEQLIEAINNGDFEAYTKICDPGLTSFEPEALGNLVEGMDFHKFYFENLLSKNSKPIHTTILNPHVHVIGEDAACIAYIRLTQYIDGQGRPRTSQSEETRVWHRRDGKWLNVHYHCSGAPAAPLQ
| Structure (SMILES) | remaining activity [%] |
| --- | --- |
| O=C(c1cc2cc(O)ccc2[nH]1)c1cc2cc(O)ccc2[nH]1 | 89.5 |
| COc1ccc(COc2ccc(Cc3cnc(N)nc3N)cc2OC)cc1 | 94.4 |
| O=Nc1c(-c2c(O)[nH]c3cc(Br)ccc23)[nH]c2ccccc12 | 28.3 |
| O=c1cc(N2CCOCC2)oc2c(-c3ccccc3)cccc12 | 90.5 |
| Oc1cccc(-c2nc(N3CCOCC3)c3oc4ncccc4c3n2)c1 | 100 |
| O=C1Cc2c([nH]c3ccc(Br)cc23)-c2ccccc2N1 | 116 |
| c1ccc(-c2n[nH]c3c2oc2ccccc23)cc1 | 93.3 |
| O=C1Nc2ccccc2/C1=C\c1c(Cl)[nH]c2ccccc12 | 103 |
| CCCCc1c(-c2ccc(OC)cc2)[nH]c2nccnc12 | 107 |

Block 4 — tested at: 1 µM
SMILES: NS(=O)(=O)c1cc(NC(=O)Cc2ccccc2)ccc1Oc1cccc(Cl)c1
| target | assay | remaining binding [%] |
| --- | --- | --- |
| ACVR2A (Homo sapiens, UniProt P27037) | cell-free assay, competition with immobilised ligand | 95 |
| ABL2 (Homo sapiens, UniProt P42684) | cell-free assay, competition with immobilised ligand | 87 |
| MAPKAPK5 (Homo sapiens, UniProt Q8IW41) | cell-free assay, competition with immobilised ligand | 100 |
| PIK3C3 (Homo sapiens, UniProt Q8NEB9) | cell-free assay, competition with immobilised ligand | 100 |
| PRKX (Homo sapiens, UniProt P51817) | cell-free assay, competition with immobilised ligand | 91 |
| Aurora kinase B (AURKB, Homo sapiens, UniProt Q96GD4) | cell-free assay, competition with immobilised ligand | 58 |
| ROCK2 (Homo sapiens, UniProt O75116) | cell-free assay, competition with immobilised ligand | 98 |
| EPHB2 (Homo sapiens, UniProt P29323) | cell-free assay, competition with immobilised ligand | 100 |
| FER (Homo sapiens, UniProt P16591) | cell-free assay, competition with immobilised ligand | 73 |
| CSNK1E (Homo sapiens, UniProt P49674) | cell-free assay, competition with immobilised ligand | 100 |
| IRAK3 (Homo sapiens, UniProt Q9Y616) | cell-free assay, competition with immobilised ligand | 87 |
| NEK7 (Homo sapiens, UniProt Q8TDX7) | cell-free assay, competition with immobilised ligand | 86 |
| Macrophage colony-stimulating factor 1 receptor, autoinhibited (CSF1R, Homo sapiens, UniProt P07333) | cell-free assay, competition with immobilised ligand | 51 |
| ACVR2B (Homo sapiens, UniProt Q13705) | binding, competition with immobilised ligand | 75 |
| EGFR (Homo sapiens, UniProt P00533, A750P/del747-749) | cell-free assay, competition with immobilised ligand | 86 |
| CAMKK2 (Homo sapiens, UniProt Q96RR4) | cell-free assay, competition with immobilised ligand | 91 |
| SIK1 (Homo sapiens, UniProt P57059) | competition binding | 93 |

Mixed results
| Compound | assay | system | setting | quantity | value |
| --- | --- | --- | --- | --- | --- |
| CC(C)n1cnc(-c2ccc(F)cc2)c1-c1ncc(C(=O)Nc2ccc(N3CCN(C)CC3)cc2)[nH]1 | phase 2a clinical trial | patients with idiopathic pulmonary fibrosis | 60 mg once daily | patients with ALP increased TEAE | 0% |

For quick reference, copied from above (block 4):
| target | assay | remaining binding [%] |
| --- | --- | --- |
| IRAK3 (Homo sapiens, UniProt Q9Y616) | cell-free assay, competition with immobilised ligand | 87 |
| NEK7 (Homo sapiens, UniProt Q8TDX7) | cell-free assay, competition with immobilised ligand | 86 |
| Macrophage colony-stimulating factor 1 receptor, autoinhibited (CSF1R, Homo sapiens, UniProt P07333) | cell-free assay, competition with immobilised ligand | 51 |
| ACVR2B (Homo sapiens, UniProt Q13705) | binding, competition with immobilised ligand | 75 |
| EGFR (Homo sapiens, UniProt P00533, A750P/del747-749) | cell-free assay, competition with immobilised ligand | 86 |
